# Results gathered from unrelated publications.
# Lines come from different studies, so protocols differ. Numbers after ± are the reported error.
# Chain of UniProt P41240 (whole entry, looked up): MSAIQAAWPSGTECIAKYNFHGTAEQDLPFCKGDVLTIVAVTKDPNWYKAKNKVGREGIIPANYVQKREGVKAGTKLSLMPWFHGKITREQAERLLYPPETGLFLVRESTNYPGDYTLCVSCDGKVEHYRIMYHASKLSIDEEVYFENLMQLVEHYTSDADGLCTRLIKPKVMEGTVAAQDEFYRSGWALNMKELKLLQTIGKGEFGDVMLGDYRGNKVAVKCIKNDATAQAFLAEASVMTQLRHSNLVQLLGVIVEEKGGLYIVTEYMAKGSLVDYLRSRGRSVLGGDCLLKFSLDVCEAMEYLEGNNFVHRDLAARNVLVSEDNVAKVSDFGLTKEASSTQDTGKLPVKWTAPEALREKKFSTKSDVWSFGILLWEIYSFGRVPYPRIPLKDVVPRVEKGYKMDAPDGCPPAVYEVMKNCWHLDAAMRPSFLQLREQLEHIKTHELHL
# Chain of UniProt P54756 (whole entry, looked up): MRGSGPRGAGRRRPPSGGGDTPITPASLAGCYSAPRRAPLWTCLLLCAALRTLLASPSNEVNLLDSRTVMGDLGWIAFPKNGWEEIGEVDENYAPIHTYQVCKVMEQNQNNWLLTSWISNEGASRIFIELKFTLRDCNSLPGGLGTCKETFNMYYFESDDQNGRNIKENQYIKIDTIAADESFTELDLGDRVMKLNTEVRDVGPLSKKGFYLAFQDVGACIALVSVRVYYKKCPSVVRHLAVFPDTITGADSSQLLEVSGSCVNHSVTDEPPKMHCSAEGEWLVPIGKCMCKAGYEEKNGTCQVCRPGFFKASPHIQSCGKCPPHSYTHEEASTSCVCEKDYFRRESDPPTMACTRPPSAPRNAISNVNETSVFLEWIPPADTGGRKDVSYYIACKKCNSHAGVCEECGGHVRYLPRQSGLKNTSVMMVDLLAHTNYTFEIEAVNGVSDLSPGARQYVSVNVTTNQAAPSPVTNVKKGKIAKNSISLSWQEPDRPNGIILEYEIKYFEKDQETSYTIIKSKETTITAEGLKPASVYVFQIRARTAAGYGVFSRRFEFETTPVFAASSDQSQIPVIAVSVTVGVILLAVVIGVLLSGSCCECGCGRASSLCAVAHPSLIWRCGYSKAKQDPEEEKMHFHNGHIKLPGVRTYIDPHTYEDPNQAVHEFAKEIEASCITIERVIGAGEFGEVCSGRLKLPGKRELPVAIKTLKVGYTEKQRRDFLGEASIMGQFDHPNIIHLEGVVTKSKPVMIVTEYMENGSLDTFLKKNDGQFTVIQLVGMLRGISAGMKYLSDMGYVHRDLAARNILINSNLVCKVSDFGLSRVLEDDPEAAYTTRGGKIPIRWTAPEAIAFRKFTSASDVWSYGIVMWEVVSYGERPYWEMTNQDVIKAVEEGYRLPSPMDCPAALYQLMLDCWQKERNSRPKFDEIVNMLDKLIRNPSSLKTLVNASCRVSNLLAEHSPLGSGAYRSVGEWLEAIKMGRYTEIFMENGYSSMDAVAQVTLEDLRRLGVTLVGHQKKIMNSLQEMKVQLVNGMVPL
# Chain of UniProt Q96DB2 (whole entry, looked up): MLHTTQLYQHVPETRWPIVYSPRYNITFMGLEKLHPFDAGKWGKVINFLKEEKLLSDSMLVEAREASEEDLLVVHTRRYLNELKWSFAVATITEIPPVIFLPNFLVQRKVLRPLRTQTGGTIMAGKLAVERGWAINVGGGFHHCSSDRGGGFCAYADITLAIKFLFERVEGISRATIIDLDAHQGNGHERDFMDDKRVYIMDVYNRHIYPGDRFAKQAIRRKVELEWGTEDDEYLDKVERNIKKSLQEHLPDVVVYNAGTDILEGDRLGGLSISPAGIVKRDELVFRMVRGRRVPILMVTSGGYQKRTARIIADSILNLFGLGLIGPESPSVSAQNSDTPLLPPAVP
# Chain of UniProt P55072 (whole entry, looked up): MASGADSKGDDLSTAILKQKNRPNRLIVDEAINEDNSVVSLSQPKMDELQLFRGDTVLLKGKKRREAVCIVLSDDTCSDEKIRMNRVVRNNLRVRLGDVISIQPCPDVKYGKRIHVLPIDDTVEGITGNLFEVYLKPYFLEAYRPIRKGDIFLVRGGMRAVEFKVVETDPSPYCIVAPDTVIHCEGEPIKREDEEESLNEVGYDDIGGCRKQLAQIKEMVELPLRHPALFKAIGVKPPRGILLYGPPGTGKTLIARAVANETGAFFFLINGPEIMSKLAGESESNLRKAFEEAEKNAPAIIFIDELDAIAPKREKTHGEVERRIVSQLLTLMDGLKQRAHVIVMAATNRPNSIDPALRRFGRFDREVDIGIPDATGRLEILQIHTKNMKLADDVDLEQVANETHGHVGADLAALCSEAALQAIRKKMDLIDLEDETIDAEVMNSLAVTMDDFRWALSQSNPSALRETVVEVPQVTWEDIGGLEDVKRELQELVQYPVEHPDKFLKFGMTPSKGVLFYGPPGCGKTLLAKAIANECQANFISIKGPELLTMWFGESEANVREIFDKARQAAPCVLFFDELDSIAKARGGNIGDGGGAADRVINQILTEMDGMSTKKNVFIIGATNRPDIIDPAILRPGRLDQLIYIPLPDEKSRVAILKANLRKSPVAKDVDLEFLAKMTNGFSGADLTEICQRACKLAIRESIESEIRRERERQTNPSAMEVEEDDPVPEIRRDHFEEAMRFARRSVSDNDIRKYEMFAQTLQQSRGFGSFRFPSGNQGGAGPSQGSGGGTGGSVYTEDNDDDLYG
# Chain of UniProt P30550 (whole entry, looked up): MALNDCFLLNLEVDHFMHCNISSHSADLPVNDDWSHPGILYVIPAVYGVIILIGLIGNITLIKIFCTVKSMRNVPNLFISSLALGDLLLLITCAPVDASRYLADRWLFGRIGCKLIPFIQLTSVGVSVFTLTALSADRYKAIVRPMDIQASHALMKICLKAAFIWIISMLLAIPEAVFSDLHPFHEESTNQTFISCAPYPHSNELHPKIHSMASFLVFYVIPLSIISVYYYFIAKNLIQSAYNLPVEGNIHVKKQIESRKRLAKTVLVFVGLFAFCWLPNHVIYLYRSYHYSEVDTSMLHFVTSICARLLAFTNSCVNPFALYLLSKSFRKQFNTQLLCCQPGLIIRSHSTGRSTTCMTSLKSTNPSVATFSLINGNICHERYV
# Chain of UniProt Q8WTS6 (whole entry, looked up): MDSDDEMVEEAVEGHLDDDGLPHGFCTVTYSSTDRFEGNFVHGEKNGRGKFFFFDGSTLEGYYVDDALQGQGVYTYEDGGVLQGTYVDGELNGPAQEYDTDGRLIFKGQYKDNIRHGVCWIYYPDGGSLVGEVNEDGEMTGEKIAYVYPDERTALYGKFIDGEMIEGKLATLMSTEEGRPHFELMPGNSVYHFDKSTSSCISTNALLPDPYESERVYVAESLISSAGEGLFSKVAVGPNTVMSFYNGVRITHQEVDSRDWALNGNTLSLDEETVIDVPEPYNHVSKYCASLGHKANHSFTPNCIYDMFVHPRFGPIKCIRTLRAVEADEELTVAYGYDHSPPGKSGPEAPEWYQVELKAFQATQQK
# Chain of UniProt Q01959 (whole entry, looked up): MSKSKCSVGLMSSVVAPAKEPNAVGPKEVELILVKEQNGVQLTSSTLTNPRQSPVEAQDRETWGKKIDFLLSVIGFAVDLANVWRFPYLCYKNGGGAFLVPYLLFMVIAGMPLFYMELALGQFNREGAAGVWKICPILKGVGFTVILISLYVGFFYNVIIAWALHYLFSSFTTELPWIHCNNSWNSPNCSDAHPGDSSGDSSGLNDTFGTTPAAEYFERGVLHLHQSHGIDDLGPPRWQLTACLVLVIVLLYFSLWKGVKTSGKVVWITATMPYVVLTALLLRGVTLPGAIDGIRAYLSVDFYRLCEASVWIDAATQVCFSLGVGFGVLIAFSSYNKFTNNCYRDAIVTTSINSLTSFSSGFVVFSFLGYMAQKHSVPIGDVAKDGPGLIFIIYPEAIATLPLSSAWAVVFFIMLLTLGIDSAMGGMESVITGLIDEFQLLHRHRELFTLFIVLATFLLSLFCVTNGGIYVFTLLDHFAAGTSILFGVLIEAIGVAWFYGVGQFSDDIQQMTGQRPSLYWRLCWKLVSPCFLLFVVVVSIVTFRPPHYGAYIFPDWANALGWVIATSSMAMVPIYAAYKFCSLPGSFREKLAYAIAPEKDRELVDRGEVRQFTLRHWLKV
# Chain of UniProt Q96EB6 (whole entry, looked up): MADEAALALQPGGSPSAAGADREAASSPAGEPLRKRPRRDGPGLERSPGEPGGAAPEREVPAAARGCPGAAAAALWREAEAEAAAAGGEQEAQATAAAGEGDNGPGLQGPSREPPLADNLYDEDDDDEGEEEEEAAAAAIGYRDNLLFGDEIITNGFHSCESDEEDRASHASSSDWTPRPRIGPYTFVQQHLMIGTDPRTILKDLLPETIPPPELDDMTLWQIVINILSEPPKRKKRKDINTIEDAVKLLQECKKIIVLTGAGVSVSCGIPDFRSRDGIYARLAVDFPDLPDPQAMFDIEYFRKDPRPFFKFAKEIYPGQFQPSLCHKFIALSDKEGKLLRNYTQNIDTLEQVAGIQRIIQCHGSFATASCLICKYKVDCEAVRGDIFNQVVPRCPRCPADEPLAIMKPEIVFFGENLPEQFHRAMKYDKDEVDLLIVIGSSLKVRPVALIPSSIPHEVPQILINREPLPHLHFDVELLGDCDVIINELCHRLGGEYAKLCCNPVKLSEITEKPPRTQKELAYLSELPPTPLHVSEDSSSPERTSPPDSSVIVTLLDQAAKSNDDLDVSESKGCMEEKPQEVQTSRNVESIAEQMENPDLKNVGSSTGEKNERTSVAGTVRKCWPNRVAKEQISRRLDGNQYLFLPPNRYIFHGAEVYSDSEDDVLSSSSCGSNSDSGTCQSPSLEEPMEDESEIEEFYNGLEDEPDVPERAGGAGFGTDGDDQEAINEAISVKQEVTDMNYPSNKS
# Chain of UniProt P51452 (whole entry, looked up): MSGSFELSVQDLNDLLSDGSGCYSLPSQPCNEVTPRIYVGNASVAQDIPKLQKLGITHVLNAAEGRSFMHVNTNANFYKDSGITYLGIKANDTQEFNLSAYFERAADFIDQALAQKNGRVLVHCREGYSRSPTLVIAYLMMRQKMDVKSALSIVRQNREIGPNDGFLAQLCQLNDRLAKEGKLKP
Structure (SMILES),target,test,system,setting,IC50 [µM]
O=C(O)C(CO)NCc1cc(Cl)c(OCc2cccc(-c3ccccc3)c2Br)cc1OCc1cccnc1 (centres unmarked),"CD28/CD86 (Homo sapiens, UniProt P10747+P42081)","PD-1/PD-L1 interaction, inhibitor, ELISA",,,> 10
CC(C)C[C@@H]1NC(=O)[C@H](Cc2c[nH]cn2)NC(=O)[C@@H](C)NC(=O)[C@H](C(C)C)NC(=O)[C@H](C)NC(=O)[C@H](Cc2c[nH]c3ccccc23)NC(=O)[C@H](CCC(N)=O)NC(=O)[C@H](N)CSSC[C@@H](C(N)=O)NC1=O,"GRPR (Homo sapiens, UniProt P30550)","ligand displacement in cells, radioligand",,,0.437
N#Cc1ccc(-c2c[nH]c(CNC(=O)Nc3ncc(Sc4ccccn4)s3)n2)cc1,"Enoyl-(Acyl-carrier-protein) reductase (Streptococcus pneumoniae, UniProt Q9FBC5)","enzyme activity, inhibitor",,,0.085
COc1ccc2cc(C(=O)NCCN3CCC(Cc4ccccc4)CC3)ccc2c1,"SLC6A3 (Homo sapiens, UniProt Q01959)","transporter uptake, inhibitor, radiometric",,,1.08 to 8.4
Cc1cc(C)nc(SC(C)C(=O)Nc2ncc(Cc3cccc4ccccc34)s2)n1 (centres unmarked),"SIRT1 (Homo sapiens, UniProt Q96EB6)","enzyme activity, inhibitor, fluorescence",,,> 100
C#CCOc1cccc(Oc2nc3c(c(=O)n(CCCO)c(=O)n3C)n2Cc2ccc(C3(C(F)(F)F)N=N3)cc2)c1,"TRPC5 (Homo sapiens, UniProt Q9UL62)","calcium signal, inhibitor, fluorescence",,,0.026
CNC(=O)C1CCN(c2ccccc2NC(=O)c2ccc(-c3cc(O)ccc3C)c(C)c2)CC1,"EPHA5 (Homo sapiens, UniProt P54756)","target engagement in cells, BRET",,,0.0108
CC(=O)Nc1cccc(Nc2nc(NC(C)c3ccccc3)c3ccccc3n2)c1 (centres unmarked),"VCP (Homo sapiens, UniProt P55072)","ATPase activity, inhibitor, absorbance",,,10.2
Cc1cccc(C)c1NC(=O)CC(C)NCc1ccccc1 (centres unmarked),"SCN4A (Homo sapiens, UniProt P35499, F1586C)","phasic block of sodium current, whole-cell patch clamp",HEK293,10 Hz stimulation,62 ± 4
Cc1cc2c(NC(=O)N[C@@H]3CC(C)(C)Oc4c(OC(F)(F)F)cccc43)cccc2cn1,"TRPV1 (Homo sapiens, UniProt Q8NER1)","heat-activated current, antagonist",,together with: heat 48 °C,0.017
N=C(N)NCCCC(N)C(=O)NCC(=O)NC(CCCCNC(=N)NCCSCC1OC(n2cnc3c(N)ncnc32)C(O)C1O)C(N)=O (centres unmarked),"SETD7 (Homo sapiens, UniProt Q8WTS6)","enzyme activity, inhibitor, fluorescence",,,~100
O=C(O)C(=O)N1CCc2cccc(F)c2C1,"DUSP3 (Homo sapiens, UniProt P51452)","enzyme activity, inhibitor, fluorescence",,,490
CCCCCCCCCCCCCCCC(=O)OCCN1CCN(c2cc(Nc3ncc(C(=O)Nc4c(C)cccc4Cl)s3)nc(C)n2)CC1,"CSK (Homo sapiens, UniProt P41240)","enzyme activity, inhibitor",,,5.1
O=C(NO)c1ccc(Cn2sc3ccccc3c2=O)cc1,"HDAC11 (Homo sapiens, UniProt Q96DB2)","enzyme activity, inhibitor",,,> 10

# Excerpt of the above:
Structure (SMILES),target,test,system,setting,IC50 [µM]
CC(=O)Nc1cccc(Nc2nc(NC(C)c3ccccc3)c3ccccc3n2)c1 (centres unmarked),"VCP (Homo sapiens, UniProt P55072)","ATPase activity, inhibitor, absorbance",,,10.2
